Assay results collected from several papers.
Every numbered part comes from another study and shows a few of its results, in no order. Positions count from the first letter of the parent shown.

Set 1
Target: Histone acetyltransferase KAT6A, winged helix 2, GST fusion (KAT6A, Homo sapiens, UniProt Q92794, residues 85-181)
Technique: protein binding microarray
Molecule type: double-stranded DNA, one strand shown
Sample: in vitro
Concentration: not given
Setting: 8-mer, flanks averaged, mean of 2 arrays, mostly near background
Relative to: not given
Direction: higher = stronger binding
Residues (chain): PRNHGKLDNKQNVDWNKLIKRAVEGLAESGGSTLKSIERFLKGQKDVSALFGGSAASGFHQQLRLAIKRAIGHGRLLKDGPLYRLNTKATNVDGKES
Oligonucleotide | E-score
ACCCAAGT | -0.0733
GAGCTGGC | -0.0499
AAGTGTAG | -0.142
ATACGATC | -0.103
CCGGTCAC | 0.0346
AAAGTCCT | -0.0938
ACCCTCTC | -0.0315
AACTAATT | 0.0653
GTTCTCGA | -0.155
CCGTCCCC | -0.0197
AAGTTCTG | -0.113
CAGAACAG | -0.0141
GTATGGAC | 0.0981
GAGAAGTA | -0.138
CTCTTCCA | 0.0108
CAGAACCA | 0.0762
AGACATGA | -0.0548
ACCGTTGA | -0.242
AACTCTAC | -0.172

Set 2
Target: TAR DNA-binding protein 43, full length, His tag (TARDBP, Homo sapiens, UniProt Q13148, residues 1-414)
Technique: RNA Bind-n-Seq
Molecule type: RNA
Sample: in vitro
Concentration: 20 nM
Setting: 6-mer, flanks averaged, single round
With: 150 mM LiCl
Relative to: input library
Direction: higher = stronger binding
Oligonucleotide | 6-mer enrichment (R)
UUCUUU | 1.21
AUAAUG | 0.984
GCUCUC | 0.891
CCCUAA | 0.976
AACCAG | 0.849
ACGUGC | 0.926
UUUCCG | 0.964
ACUGCG | 0.909
GAUUUU | 1.05
GGCGCG | 1.16
UAUGUA | 1.22
AAUAGC | 0.881
UUUAAG | 1
GUUUGG | 1.48
UGUCAG | 0.971
AUUGUC | 0.925
AUACAG | 0.829
CUAUGA | 0.857
UUGACA | 1.02
GAAGGC | 0.932
UAACAG | 0.854
UAGCCA | 0.889
GGGGCG | 1.37
UAUGCA | 1.02
UCUUGA | 0.952

Set 3
Target: CREB3L2, bZIP domain (human)
Technique: DHFR protein complementation
Sample: yeast
Setting: single substitutions, most at no-binding floor
Relative to: wild-type JUN-FOS pair
Direction: higher = stronger binding
Starting sequence: JUN, bZIP domain (human); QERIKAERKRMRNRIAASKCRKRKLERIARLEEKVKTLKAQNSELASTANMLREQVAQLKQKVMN; partner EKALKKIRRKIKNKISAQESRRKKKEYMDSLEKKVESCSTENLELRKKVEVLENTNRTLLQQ
Substitution | binding fitness [natural log]
T48V | -1.5
R53M | -1.46
A40R | -1.51
T48F | -1.57
A46P | -1.52
E32A | -1.47
V56D | -1.56
A49F | -1.51
A49Q | -1.55
E33V | -1.55
E54L | -1.46
L45T | -1.58
Q41P | -1.52
E44T | -1.56
Q41E | -1.35
Q41K | -1.46
A49S | -1.52
E54P | -1.51
V35G | -1.49

Set 4
Target: ABI1, truncated, D143A, DHFR fusion (Arabidopsis thaliana)
Technique: DHFR PCA, deep sequencing
Sample: yeast
Setting: methotrexate growth selection, single substitutions
With: (+)-ABA 58 µM
Relative to: wild-type fitted maximum
Direction: higher = stronger binding
Starting sequence: PYL1, truncated, DHFR fusion (Arabidopsis thaliana); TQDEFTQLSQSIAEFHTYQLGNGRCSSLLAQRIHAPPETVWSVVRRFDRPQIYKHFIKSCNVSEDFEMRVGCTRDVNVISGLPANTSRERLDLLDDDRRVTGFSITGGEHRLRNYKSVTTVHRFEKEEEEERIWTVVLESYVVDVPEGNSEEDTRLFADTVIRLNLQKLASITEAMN
Substitution | relative binding score [%]
E125G | 87.5
F66G | 85.7
N114G | 91.4
A84E | 14
K58R | 85.5
P50G | -0.921
I12L | 63.8
L94D | 7.29
A30D | 50.1
R32V | 89.3
E128K | 90.2
A158R | 1.78
E109R | 69.8
V118F | 37.7
A35T | 53.5
Y141W | 25.8
T1G | 85.2
T73N | 70.4
E14P | 7.12

Set 5
Target: RNA binding protein fox-1 homolog 2, RRM domain, GST-SBP tag (RBFOX2, Homo sapiens, UniProt O43251-10, residues 100-194)
Technique: RNA Bind-n-Seq
Molecule type: RNA
Sample: in vitro
Concentration: 365 nM
Setting: natural RNA segment, single round, ends assumed
Relative to: no-protein control
Direction: higher = stronger binding
Construct (chain): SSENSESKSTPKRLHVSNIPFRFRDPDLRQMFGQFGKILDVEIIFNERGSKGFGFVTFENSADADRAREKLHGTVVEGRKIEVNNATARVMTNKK
Oligonucleotide | RBNS enrichment (R)
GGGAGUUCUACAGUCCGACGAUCAACGCUUAACCUUCUGUUAGCCAAUAUAUAAUUAAUGCAUGCUACUCCAUGAAUUUCUGCCUAUGAGGCAUUUGCCUCCAAGUAGCCUAUCCUUCAGAAUUACUUGUAGGUGGAAUUCUCGGGUGCCAA | 6.12
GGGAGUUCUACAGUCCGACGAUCAGAAAGAAAAAGGAAAAAUCCAAAAUAUCUCAGUAUCAUCUGUCUGAAGCAUUGUGUGUUCUCAUUCGGGUGGUAACAAUGUAUGUGUAAUAUUUUUUUCUUAGUGAUUUUGGAAUUCUCGGGUGCCAA | 0.464
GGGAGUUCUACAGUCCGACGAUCAAGCUGUCUCUCUGACACCAGUGGUAAAAAAGCAAGUAGAAUAGUUUCUGAGUCUGUGUUGCAGCCUCUGACACGUGGCUCACCGCUGUCAUUUGGGGGAUGGAAUGAACUGGAAUUCUCGGGUGCCAA | 0.548
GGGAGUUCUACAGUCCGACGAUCCCGUGUAACCACCUGGACUAAGUUGAGAAGGAAACUGCCAAAUGCUUUGGGUUUUUAGGGUUUUAAUAGGUAGACUCUGUUCUAUUAUUAGGUGUUAAGAGUUUCCAAACUGGAAUUCUCGGGUGCCAA | 0.645
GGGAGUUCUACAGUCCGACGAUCUUCUGCUGUCAGAGUGUCUAAGAGACCCAGUUGGGCUGAAAGACAUGCUCUGUGCACAGGCACAGAGGACAUCUAACAAGAUCAUCGGACCCUAAUGCAAGUUCCAUGUUUGGAAUUCUCGGGUGCCAA | 0.269
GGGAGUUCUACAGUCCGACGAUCAUCUCCUGUAAAGAGAACAGAGGAGUCUUUAAUGGUUUCUGGAAGGAGAAGGGAUAGGACUUUGUGGUACAGCUCUAGUUUCUGUGAGAAUCCCUUUUAUUUGCAGUUUAUGGAAUUCUCGGGUGCCAA | 0.545
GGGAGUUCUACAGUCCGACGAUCAGAAUCAGGGAGAUGACUGAACUACUGAAAAACAGGUUCCCUUGUAUUUAGGAUCUUAAGGUGUAUAAAAAGCAAACAUGACUUUGCACCUAAGUAAAUUCUGCAUUCUCUGGAAUUCUCGGGUGCCAA | 1.35
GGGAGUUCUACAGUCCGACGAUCGCGCCAUCAUGGGCUGAUUUUUAUUACCAGGUCCCCCAGAAGCAGGUGGGAGGCUCUGCUUCCUGCUGCCGCUCUGCAGCCUGGACCUGUGGACCCUGGUUGUAAAGAGUUGGAAUUCUCGGGUGCCAA | 0.184
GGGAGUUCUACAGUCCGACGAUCCUGCCAGCUCUUAAGAAACAUUCCUGGUGCGGUGUCUGCAGUGCCCUUUGUGGGUGACUUCAGGCUUCCCGCUUUCGUGGUGCUCUUCCUGGGAUUCGUUUUUUUAUUACUGGAAUUCUCGGGUGCCAA | 0.253
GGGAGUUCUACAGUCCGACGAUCCUCUUCAACAUUCAUGAAGAUUGAAUCCCAAUCGUGGAAUACACAAGCACUUUUCCAUCCCUGGCGGGAUGGGUGGAUAGAACAUUUUUUUUAUUCAGCAUACAUUUUCUUGGAAUUCUCGGGUGCCAA | 0.5
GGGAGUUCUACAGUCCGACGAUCUUAAGGAACAGCCAUAACCCUCCGAAUGAUUGCAUUAAUUUCUGACCGCCCUCAGCCCGUUGGAAGCUUGGUUUAGAGGACUUGUUGGGCUCAUUUUGGUUUUAUUGAAAUGGAAUUCUCGGGUGCCAA | 1.12
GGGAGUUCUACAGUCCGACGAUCGAUUAGACUUUAUCAGGGAAUCUGUUUAAGAUAUGUUUGGUGACCAAAACGUAUGUGUGAAUGUAGUUAUAAUGCUUUUGAAAAAUUUUCCUUUUUCUAUAUCCCCUUAGUGGAAUUCUCGGGUGCCAA | 0.912

Set 6
Target: CCNB3, cyclin fold, Cln2 fusion (human)
Technique: yeast growth competition, sequencing
Sample: yeast
Setting: weak parent motif
Relative to: not given
Direction: higher = stronger binding
Starting sequence: CDKN1C docking peptide (human); TSACRSLFGPVDH
Substitution | normalised enrichment score
R5K F8L | 0.16
F8A | 0.127
H13A | 0.343
D12A | 0.436
V11A | 0.544
R5A L7A | -0.0238
L7A | -0.0278
C4A | 0.195

Set 7
Target: Sal-like protein 4, full length isoform A (SALL4, Homo sapiens, UniProt Q9UJQ4, residues 1-1053)
UniProt Q9UJQ4, sequence (whole entry, looked up): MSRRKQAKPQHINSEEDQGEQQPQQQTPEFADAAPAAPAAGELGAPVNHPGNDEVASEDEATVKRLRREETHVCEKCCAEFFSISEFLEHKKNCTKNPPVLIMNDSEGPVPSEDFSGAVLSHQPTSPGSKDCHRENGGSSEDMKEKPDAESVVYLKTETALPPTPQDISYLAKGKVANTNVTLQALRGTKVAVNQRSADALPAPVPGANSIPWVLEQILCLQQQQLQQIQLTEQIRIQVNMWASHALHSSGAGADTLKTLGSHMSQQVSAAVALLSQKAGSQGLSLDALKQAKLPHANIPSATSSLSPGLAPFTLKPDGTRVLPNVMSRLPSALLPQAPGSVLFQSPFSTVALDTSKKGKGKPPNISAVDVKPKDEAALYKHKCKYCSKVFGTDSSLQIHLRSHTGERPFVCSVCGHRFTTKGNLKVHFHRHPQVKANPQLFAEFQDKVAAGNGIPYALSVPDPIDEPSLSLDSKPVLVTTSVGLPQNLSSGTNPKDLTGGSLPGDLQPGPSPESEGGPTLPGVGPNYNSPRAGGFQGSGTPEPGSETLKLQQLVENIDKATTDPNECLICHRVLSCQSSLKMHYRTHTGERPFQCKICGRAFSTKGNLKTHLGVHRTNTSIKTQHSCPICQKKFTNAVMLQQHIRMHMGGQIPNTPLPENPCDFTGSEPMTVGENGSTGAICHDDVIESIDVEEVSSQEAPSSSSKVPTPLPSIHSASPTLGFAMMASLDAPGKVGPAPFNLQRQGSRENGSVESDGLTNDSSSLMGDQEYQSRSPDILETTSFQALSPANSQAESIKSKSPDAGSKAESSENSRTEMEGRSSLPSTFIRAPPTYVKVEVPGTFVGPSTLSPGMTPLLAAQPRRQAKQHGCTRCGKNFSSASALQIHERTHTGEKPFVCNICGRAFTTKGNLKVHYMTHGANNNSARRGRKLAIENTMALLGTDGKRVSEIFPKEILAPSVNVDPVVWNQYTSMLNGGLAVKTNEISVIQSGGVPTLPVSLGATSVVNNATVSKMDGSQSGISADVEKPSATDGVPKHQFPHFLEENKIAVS
Technique: universal PBM
Molecule type: double-stranded DNA, one strand shown
Sample: in vitro
Concentration: 600 nM
Setting: 8-mer, flanks averaged, mean of replicates
Direction: higher = stronger binding
Oligonucleotide | E-score
CCTGCCAA | -0.131
ACTGGTCC | -0.292
ATGGCTAA | 0.147
CCGACCCA | -0.235
TGACGCCA | -0.23
ACTACCAT | 0.139
ATATCACG | 0.228
CCGACATA | 0.047
ACCACGAT | 0.038
GTTCTCCA | -0.0287
AAGAAAGG | 0.101
AACAACCA | 0.108
ATTGGCGG | 0.00356
CCATTCTC | -0.0311
ATGTTGGG | -0.15
TAACGACA | 0.115

A few entries again (set 3):
Substitution | binding fitness [natural log]
V56D | -1.56
E54P | -1.51
A49F | -1.51
A49S | -1.52
T48F | -1.57
A40R | -1.51
T48V | -1.5
L45T | -1.58
E44T | -1.56
R53M | -1.46
Q41K | -1.46
A46P | -1.52
E32A | -1.47
Q41P | -1.52
V35G | -1.49
